Measured values gathered from unrelated publications.
Lines come from different studies, so protocols differ. Several values in a cell are separate wells, animals, samples, runs or records. ± marks the error that the study gave.
Genome polyprotein NS2B-NS3 protease: Genome polyprotein, NS2B-NS3 protease (dengue virus type 2, UniProt P29990)

Cc1ccncc1.[Cl-].[Cl-].[Ru+2].c1cc(-c2ccc3cccnc3n2)nc(-c2ccc3cccnc3n2)c1.c1ccc2cc3nc4c5cccnc5c5ncccc5c4nc3cc2c1 — EC50 (B16-F10; resazurin; added: light 633 nm, 20 mW, 100 J/cm2): 1970 ± 90 nM
O=C(N/N=C/c1ccc(C[n+]2ccccc2)cc1)c1cccc(C(=O)N/N=C/c2ccc(C[n+]3ccccc3)cc2)c1 — ΔTm (telomeric G4 DNA hybrid-2; FRET melting; 1 µM, DNA 0.2 µM): 3.5 ± 1.3 °C
O=C(Nc1cnccc1-c1ccc([18F])cc1)c1ccnc(NC(=O)C2CC2)c1 — SUV (mice, transgenic, GSK-3β, early-stage, pancreas; intravenous, dose not given, 120 min): 0.16
O=C(O)C(Cc1c[nH]cn1)N1C(=O)c2ccc3c4ccc5c6c(ccc(c7ccc(c2c37)C1=O)c64)C(=O)N(CCN1CCCCC1)C5=O (centres unmarked) — DC50 (hTERT promoter G-quadruplex DNA; binding, thiazole orange displacement; pH 8): 720 ± 250 nM
Cn1ncc2cc(-c3cncc(Cl)c3N3CCC4(CCNC4=O)CC3)ccc21 — log2 fold change (LS174T; gene expression, microarray, measured: PFKFB4 mRNA; concentration not given, 4 h; relative to: untreated cells): 1.15
Cc1ncsc1-c1ccc(C(C)NC(=O)C2CC(O)CN2C(=O)C(NC(=O)CCCCCCCCCCN2CCCC(Nc3ncc(Cl)c(Nc4ccccc4S(=O)(=O)C(C)C)n3)C2)C(C)(C)C)cc1 (centres unmarked) — log2 fold change (22Rv1; RNA-seq, measured: RAD54B mRNA; concentration not given; relative to: DMSO): -1.07
C=CC(=O)N1[C@H](c2ccc3c(c2)OCO3)c2[nH]c3ccccc3c2C[C@@H]1C(=O)N1CCN(C)CC1 — relative co-enrichment (human cyclin E1 N112C-3xFLAG:CDK2; co-IP with TMT proteomics, measured: HSPA8; concentration not given, P11142; relative to: wild type DMSO): 95%
C[n+]1ccc(/C=N/NC(=O)C(=O)N/N=C/c2cc[n+](C)cc2)cc1 — ΔTm (telomeric G4 DNA hybrid-2; FRET melting; 1 µM, DNA 0.2 µM): 1.1 ± 0.9 °C
Cc1nn(-c2cccc(N)c2)c(=O)c2cnc(Nc3ccc(N4CCNCC4)cc3)nc12 — IC50 (FGR (Homo sapiens, UniProt P09769); enzyme activity, inhibitor): 597 nM
COc1cc(O)ccc1CCC(c1ccc(O)cc1)c1cc2c(c(C)c1O)OC(c1ccc(O)cc1)CC2 (mixture of isomers) — LTB4 level (human blood; 0.3 µM, added: A23187): 2080 ± 1020 pg/mL
CNC(=O)C1CCCN(C(=O)C2CC3CCC2N3C(=O)[C@@H]2C[C@@H](O)CN2C(=O)NCc2cccc(Cl)c2F)C1 (mixture of isomers) — 6β-hydroxytestosterone formed (human CYP3A4; time-dependent inhibition; 0.0686 µM, preincubation with NADPH, added: testosterone): 180 ng/mL
COC1CN([C@H]2CC[C@H]([C@@]3(C)Oc4c(Cl)cc(C(=O)NCc5c(SC)cc(C)[nH]c5=O)c(C)c4O3)CC2)C1 — log2 fold change (RNA-seq, measured: MPZL2 mouse homolog; mouse, HT-1376 xenograft, whole blood; dose not given; relative to: vehicle): 3.93
CC(C)(C)NCC(SS(=O)(=O)O)c1ccccc1 (centres unmarked) — female worm burden reduction (Schistosoma mansoni; infected mice; 400 mg/kg single, day 42, perfusion day 56; relative to: vehicle): 100%
CCCC[C@H](NC(=O)COCCOCCNC(=O)CN1CCN(CC(=O)O)CCN(CC(=O)O)CC1)C(=O)N[C@H]1CC(=O)NCCCC[C@@H](C(N)=O)NC(=O)[C@H](Cc2c[nH]c3ccccc23)NC(=O)[C@H](CCCNC(=N)N)NC(=O)[C@@H](Cc2ccccc2)NC(=O)[C@H](Cc2c[nH]cn2)NC1=O [technetium-99m labelled] — tissue uptake (C57 mouse, blood; intravenous, 0.037 MBq, 2 h): 0.24 ± 0.07 %ID/g
C[n+]1ccc(/C=N/NC(=O)C(=O)N/N=C/c2cc[n+](C)c3ccccc23)c2ccccc21 — ΔTm (telomeric G4 DNA hybrid-2; FRET melting; 1 µM, DNA 0.2 µM): 2.2 ± 0.9 °C
CNS(=O)(=O)Nc1nccc(Cc2c(C)c3ccc(Oc4ncccc4F)cc3oc2=O)c1F — IC50 (NCI-H2073; cell viability; 7 days): 6.34 nM
C[n+]1ccc(/C=N/NC(=O)c2ccc3ccc(C(=O)N/N=C/c4cc[n+](C)cc4)nc3n2)cc1 — ΔTm (telomeric G4 DNA hybrid-2; FRET melting; 1 µM, DNA 0.2 µM): 10.7 ± 1.5 °C
O=C1C2CC3CC1CC(C(=O)N1CCN(c4ccc([N+](=O)[O-])c5ncccc45)CC1)(C3)C2 — mean revertant colonies (Salmonella typhimurium; Ames test; TA100; 0.02 µg/well, without S9): 24 colonies/well
O=C(Nc1cnccc1-c1ccc([18F])nc1)c1ccnc(NC(=O)C2CC2)c1 — SUV (ex vivo gamma counting; GSK-3β transgenic mice, early-stage, urine; intravenous, 120 min, mean, P-gp inhibitor pretreatment, added: tariquidar 15 mg/kg iv): 10.1
COCCOCCOCCNC(=O)Cc1cc(CC(=O)N[C@H]2C[C@H]3C(=O)Nc4cc(OCCOCCOCCOC)cc(n4)C(=O)N4CCC[C@H]4C(=O)Nc4cc(OCCOCCOCCOC)cc(n4)C(=O)N4CCC[C@H]4C(=O)Nc4cc(OCCOCCOCCOC)cc(n4)C(=O)N3C2)cc(CC(=O)N[C@H]2C[C@H]3C(=O)Nc4cc(OCCOCCOCCOC)cc(n4)C(=O)N4CCC[C@H]4C(=O)Nc4cc(OCCOCCOCCOC)cc(n4)C(=O)N4CCC[C@H]4C(=O)Nc4cc(OCCOCCOCCOC)cc(n4)C(=O)N3C2)c1 — ΔH (anion binding, ITC; phosphate buffer 35 mM; pH 7.4, 298 K, added: sodium sulfate): 6.8 ± 0.4 kJ mol^–1
c1ccc(-c2n[nH]cc2-c2ccnc3ccccc23)nc1 — log2 fold change (CTK1 (Candida albicans); kinase binding, MIB/MS competition; Candida albicans lysate; 1 µM; relative to: DMSO): -0.15
C=C(NC(=O)c1csc(-c2nc3c(cc2O)-c2nc(cs2)C(=O)NC(C(C)O)C(=O)NC(=C(C)OC)c2nc(cs2)C(=O)NC2c4nc(cs4)C(=O)NC(COC(=O)c4c5c6c(cccc6n4O)COC(=O)C(OC4CC(C)(O)C(N(C)C)C(C)O4)C2OC5)c2nc-3cs2)n1)C(N)=O (centres unmarked) — lung bacterial load (Streptococcus pneumoniae; -25, immunocompromised mice, lung; 2 mg/kg/day thrice daily, 24 h post-dose): 6.14 log10 CFU/lung
C=CC(=O)Nc1cccc(Cn2ncc3cnc(Nc4cnn(CCOC)c4)nc32)c1 — binding (human ABL1(F317L)-phosphorylated; KINOMEscan; 100 nM; relative to: control): 24%
Nc1ncc(-c2cc(-c3cnn(CC(F)(F)F)c3)ncc2F)nc1C(=O)NC1CNCC(F)C1 (centres unmarked) — remaining binding (SRMS; KINOMEscan; 1 µM; relative to: DMSO control): 96%
O=C(N/N=C/c1cc[n+](Cc2ccccc2)c2ccccc12)c1cncc(C(=O)N/N=C/c2cc[n+](Cc3ccccc3)c3ccccc23)n1 — ΔTm (telomeric G4 DNA hybrid-2; FRET melting; 1 µM, DNA 0.2 µM): 22.7 ± 1.7 °C
CC(C)c1ccc(N(C)c2ccc3c(c2)OCC[C@H]3CNc2cnccc2C(=O)O)cc1 — IC50 (NCI-H1666; cell growth or viability, ATP luminescence; 7 days): 1.17 nM
N=C(N)NCc1cccc(NC(=O)c2cc(-c3ccccc3)n(-c3ccccc3)n2)c1 — EC50 (Genome polyprotein NS2B-NS3 protease; reporter gene; HeLa): 16000 nM
CN1CCCNC(=O)c2cccc(c2)C(=O)NCCCN(C)CCCNc2cccc3c2C(=O)c2cccc(c2C3=O)NCCC1 — log2 fold change (SAS; RNA-Seq, measured: TIAL1 mRNA; 1 µM, 6 h; relative to: untreated cells): -0.92
C[n+]1cccc2cc(/C=N/NC(=O)c3cc(C(=O)N/N=C/c4ccc5c(ccc[n+]5C)c4)ncn3)ccc21 — ΔTm (telomeric G4 DNA hybrid-2; FRET melting; 1 µM, DNA 0.2 µM, added: duplex DNA competitor 10 µM): 2.5 ± 0.3 °C
CC(=O)[O-].O.O.O.O.[Co+2].[O-]c1ccc(Br)cc1C=NCCN1CCOCC1 — inhibition (superoxide scavenging; 40 µM): 4.03%
O=C(N/N=C/c1cc[n+](Cc2ccccc2)c2ccccc12)c1ccc2ccc3ccc(C(=O)N/N=C/c4cc[n+](Cc5ccccc5)c5ccccc45)nc3c2n1 — ΔTm (telomeric G4 DNA hybrid-2; FRET melting; 1 µM, DNA 0.2 µM): 27.3 ± 0.8 °C
N=C(N)NCCC[C@@H]1NC(=O)[C@H](CCCNC(=N)N)NC(=O)[C@@H](C(c2ccccc2)c2ccccc2)NC(=O)[C@H](Cc2c[nH]c3ccccc23)NC(=O)[C@@H](C(c2ccccc2)c2ccccc2)NC(=O)[C@@H](CCCNC(=N)N)NC(=O)[C@@H](CCCNC(=N)N)NC1=O — biofilm reduction (Aspergillus fumigatus; XTT; Af 293; MIC, 24 h, pre-formed biofilm): 35 to 38%
O=C(NCc1ccncc1)c1cc(-c2ccccc2)n(-c2ccccc2)n1 — EC50 (Genome polyprotein NS2B-NS3 protease; reporter gene; HeLa): 34000 nM
COc1ccc(C(=O)CCc2cc(C(CCc3ccc(O)cc3OC)c3ccc(O)cc3)c(O)cc2OC)cc1 (racemic) — LTB4 level (human blood; 10 µM, added: A23187): 2650 ± 1300 pg/mL
CCCC[C@H](NC(=O)CCCCCCCNC(=O)CN1CCN(CC(=O)O)CCN(CC(=O)O)CC1)C(=O)N[C@H]1CC(=O)NCCCC[C@@H](C(N)=O)NC(=O)[C@H](Cc2c[nH]c3ccccc23)NC(=O)[C@H](CCCNC(=N)N)NC(=O)[C@@H](Cc2ccccc2)NC(=O)[C@H](Cc2c[nH]cn2)NC1=O [technetium-99m labelled] — tissue uptake (C57 mouse, skin; intravenous, 0.037 MBq, 2 h): 0.25 ± 0.14 %ID/g
CC(C)(C)c1cc(-c2ccc3cccnc3n2)nc(-c2ccc3cccnc3n2)c1.[Cl-].[Cl-].[Ru+2].c1cnc2c(c1)ccc1cccnc12 — phototherapeutic index (B16-F10; visible light 100 J/cm2; relative to: dark EC50 over light EC50): 2
C[n+]1cc(/C=N/NC(=O)c2ccc3ccc(C(=O)N/N=C/c4cc5ccccc5[n+](C)c4)nc3n2)cc2ccccc21 — ΔTm (telomeric G4 DNA hybrid-2; FRET melting; 1 µM, DNA 0.2 µM): 17.4 ± 0.7 °C
CC(C)C[C@H](NC(=O)[C@H](Cc1ccc(O)cc1)NC(=O)[C@@H](CCCNC(=N)N)NC(=O)[C@@H](CO)NC(=O)[C@H](Cc1ccccc1)NC(=O)[C@H](CC1CCCCC1)NC(=O)[C@H](CC(=O)O)NC(=O)CN1CCN(CC(=O)O)CCN(CC(=O)O)CCN(CC(=O)O)CC1)C(=O)N[C@@H](Cc1c[nH]c2ccccc12)C(=O)N[C@@H](CO)C(=O)O [copper-64 labelled] — activity concentration (human, upper large intestine; concentration not given, 1 h): 1940 Bq/mL and 1310 Bq/mL and 2160 Bq/mL and 1260 Bq/mL and 2000 Bq/mL and 1620 Bq/mL

Repeated from above:
Cn1ncc2cc(-c3cncc(Cl)c3N3CCC4(CCNC4=O)CC3)ccc21 — log2 fold change (LS174T; gene expression, microarray, measured: PFKFB4 mRNA; concentration not given, 4 h; relative to: untreated cells): 1.15
COc1cc(O)ccc1CCC(c1ccc(O)cc1)c1cc2c(c(C)c1O)OC(c1ccc(O)cc1)CC2 (mixture of isomers) — LTB4 level (human blood; 0.3 µM, added: A23187): 2080 ± 1020 pg/mL
O=C(Nc1cnccc1-c1ccc([18F])cc1)c1ccnc(NC(=O)C2CC2)c1 — SUV (mice, transgenic, GSK-3β, early-stage, pancreas; intravenous, dose not given, 120 min): 0.16
CC(C)c1ccc(N(C)c2ccc3c(c2)OCC[C@H]3CNc2cnccc2C(=O)O)cc1 — IC50 (NCI-H1666; cell growth or viability, ATP luminescence; 7 days): 1.17 nM
